Measured values gathered from unrelated publications.
Protocols differ between the studies behind these lines.
DRD5: D(1B) dopamine receptor (DRD5, Homo sapiens, UniProt P21918)
UniProt P21918, sequence (whole entry, looked up): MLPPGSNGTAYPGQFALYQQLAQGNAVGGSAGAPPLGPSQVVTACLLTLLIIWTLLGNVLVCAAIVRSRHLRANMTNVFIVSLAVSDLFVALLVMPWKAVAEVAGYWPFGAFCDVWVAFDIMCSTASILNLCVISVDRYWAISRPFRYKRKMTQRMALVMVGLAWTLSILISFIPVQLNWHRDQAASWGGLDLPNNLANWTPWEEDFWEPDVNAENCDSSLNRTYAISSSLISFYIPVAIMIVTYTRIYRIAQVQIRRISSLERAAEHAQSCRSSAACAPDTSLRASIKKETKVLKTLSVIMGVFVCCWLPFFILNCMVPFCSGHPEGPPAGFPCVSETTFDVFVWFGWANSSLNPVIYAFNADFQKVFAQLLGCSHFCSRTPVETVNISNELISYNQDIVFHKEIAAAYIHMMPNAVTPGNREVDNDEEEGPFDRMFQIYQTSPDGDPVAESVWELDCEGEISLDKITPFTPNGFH
Calcitonin-gene-related peptide receptor, CALCRL/RAMP1: Calcitonin-gene-related peptide receptor, CALCRL/RAMP1 (Homo sapiens, UniProt O60894+Q16602)
UniProt O60894, sequence (whole entry, looked up): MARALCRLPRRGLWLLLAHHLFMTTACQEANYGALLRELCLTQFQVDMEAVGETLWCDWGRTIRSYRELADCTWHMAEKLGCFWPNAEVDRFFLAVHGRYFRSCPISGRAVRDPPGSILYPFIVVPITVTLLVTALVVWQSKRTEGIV
UniProt Q16602, sequence (whole entry, looked up): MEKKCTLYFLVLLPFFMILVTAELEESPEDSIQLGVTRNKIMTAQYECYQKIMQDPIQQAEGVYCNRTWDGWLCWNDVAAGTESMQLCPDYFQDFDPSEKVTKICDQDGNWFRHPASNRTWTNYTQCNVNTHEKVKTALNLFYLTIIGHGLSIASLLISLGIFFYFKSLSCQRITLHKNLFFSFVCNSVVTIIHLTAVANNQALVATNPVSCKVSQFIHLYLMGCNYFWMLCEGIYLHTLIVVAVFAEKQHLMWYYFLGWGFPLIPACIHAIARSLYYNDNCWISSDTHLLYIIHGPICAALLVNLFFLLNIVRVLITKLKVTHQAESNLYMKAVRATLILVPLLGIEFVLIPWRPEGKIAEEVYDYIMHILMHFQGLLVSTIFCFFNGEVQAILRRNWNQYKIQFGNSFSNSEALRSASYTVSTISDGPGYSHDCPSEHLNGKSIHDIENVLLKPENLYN
UniProt Q9UKP6, sequence (whole entry, unmodified, looked up): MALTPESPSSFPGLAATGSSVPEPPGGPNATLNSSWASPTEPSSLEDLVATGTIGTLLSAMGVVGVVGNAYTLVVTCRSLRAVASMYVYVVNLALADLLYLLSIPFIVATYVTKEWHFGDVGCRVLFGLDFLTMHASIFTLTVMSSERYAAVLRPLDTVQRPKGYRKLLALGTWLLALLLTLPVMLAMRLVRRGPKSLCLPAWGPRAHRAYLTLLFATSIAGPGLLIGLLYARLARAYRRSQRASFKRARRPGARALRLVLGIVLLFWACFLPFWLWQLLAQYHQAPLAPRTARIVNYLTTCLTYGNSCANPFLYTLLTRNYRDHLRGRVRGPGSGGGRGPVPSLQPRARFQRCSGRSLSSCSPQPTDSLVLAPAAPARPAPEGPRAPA
UniProt Q8N8S7, sequence (whole entry, looked up): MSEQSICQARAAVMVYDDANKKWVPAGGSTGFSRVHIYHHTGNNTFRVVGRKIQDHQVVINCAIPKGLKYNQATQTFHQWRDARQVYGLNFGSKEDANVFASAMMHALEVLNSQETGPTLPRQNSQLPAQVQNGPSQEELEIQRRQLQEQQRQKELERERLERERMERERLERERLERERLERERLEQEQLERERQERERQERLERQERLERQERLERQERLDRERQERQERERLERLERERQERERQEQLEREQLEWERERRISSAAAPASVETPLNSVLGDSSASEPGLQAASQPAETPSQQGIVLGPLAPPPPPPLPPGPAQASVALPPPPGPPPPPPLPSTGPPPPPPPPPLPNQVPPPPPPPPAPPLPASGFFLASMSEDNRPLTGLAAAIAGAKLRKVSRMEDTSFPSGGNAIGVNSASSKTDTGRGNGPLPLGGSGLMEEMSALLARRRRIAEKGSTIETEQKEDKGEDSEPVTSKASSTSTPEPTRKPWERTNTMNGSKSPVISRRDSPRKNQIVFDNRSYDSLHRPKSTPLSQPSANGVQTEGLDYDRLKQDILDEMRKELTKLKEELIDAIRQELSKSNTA
UniProt O95665, sequence (whole entry, looked up): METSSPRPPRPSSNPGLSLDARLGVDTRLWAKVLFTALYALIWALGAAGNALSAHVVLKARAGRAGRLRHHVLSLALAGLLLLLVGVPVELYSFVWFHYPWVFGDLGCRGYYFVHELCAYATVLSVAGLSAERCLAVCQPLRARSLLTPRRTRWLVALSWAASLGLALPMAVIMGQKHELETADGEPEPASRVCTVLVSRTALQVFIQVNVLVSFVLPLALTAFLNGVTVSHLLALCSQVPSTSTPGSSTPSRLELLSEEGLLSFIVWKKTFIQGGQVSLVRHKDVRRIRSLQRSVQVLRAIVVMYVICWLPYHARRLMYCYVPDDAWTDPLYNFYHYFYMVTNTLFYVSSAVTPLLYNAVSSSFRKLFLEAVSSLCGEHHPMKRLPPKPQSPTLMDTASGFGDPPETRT
UniProt Q16581, sequence (whole entry, looked up): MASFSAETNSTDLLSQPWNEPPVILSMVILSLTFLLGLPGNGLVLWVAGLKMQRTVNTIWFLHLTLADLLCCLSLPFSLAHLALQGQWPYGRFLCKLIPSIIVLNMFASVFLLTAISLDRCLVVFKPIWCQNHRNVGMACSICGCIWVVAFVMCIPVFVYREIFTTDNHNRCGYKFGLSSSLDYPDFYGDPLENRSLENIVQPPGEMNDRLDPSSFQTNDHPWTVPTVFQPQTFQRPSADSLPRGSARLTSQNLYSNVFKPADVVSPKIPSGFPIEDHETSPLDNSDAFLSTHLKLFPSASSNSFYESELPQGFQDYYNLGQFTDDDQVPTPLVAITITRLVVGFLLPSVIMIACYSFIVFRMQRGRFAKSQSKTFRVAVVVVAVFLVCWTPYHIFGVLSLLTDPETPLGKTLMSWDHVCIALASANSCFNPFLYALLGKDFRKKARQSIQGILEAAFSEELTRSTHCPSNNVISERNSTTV
UniProt O60285, sequence (whole entry, looked up): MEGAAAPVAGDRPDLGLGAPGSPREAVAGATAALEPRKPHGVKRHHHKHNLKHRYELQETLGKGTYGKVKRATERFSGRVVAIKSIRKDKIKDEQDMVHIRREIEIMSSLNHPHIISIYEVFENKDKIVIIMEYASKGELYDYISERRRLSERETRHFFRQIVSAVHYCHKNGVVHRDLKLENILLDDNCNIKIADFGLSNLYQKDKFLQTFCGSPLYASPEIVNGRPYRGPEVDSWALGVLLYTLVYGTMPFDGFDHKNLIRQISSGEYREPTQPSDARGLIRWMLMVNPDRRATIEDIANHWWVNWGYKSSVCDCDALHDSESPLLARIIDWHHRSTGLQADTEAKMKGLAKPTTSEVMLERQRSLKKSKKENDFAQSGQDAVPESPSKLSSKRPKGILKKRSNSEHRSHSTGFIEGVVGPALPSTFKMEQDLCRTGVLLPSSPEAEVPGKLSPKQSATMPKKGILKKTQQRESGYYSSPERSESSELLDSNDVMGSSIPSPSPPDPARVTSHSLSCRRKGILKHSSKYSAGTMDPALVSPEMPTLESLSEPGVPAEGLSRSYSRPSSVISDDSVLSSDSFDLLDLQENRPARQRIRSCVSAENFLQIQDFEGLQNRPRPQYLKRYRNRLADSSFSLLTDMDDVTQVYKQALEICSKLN
UniProt Q08460, sequence (whole entry, looked up): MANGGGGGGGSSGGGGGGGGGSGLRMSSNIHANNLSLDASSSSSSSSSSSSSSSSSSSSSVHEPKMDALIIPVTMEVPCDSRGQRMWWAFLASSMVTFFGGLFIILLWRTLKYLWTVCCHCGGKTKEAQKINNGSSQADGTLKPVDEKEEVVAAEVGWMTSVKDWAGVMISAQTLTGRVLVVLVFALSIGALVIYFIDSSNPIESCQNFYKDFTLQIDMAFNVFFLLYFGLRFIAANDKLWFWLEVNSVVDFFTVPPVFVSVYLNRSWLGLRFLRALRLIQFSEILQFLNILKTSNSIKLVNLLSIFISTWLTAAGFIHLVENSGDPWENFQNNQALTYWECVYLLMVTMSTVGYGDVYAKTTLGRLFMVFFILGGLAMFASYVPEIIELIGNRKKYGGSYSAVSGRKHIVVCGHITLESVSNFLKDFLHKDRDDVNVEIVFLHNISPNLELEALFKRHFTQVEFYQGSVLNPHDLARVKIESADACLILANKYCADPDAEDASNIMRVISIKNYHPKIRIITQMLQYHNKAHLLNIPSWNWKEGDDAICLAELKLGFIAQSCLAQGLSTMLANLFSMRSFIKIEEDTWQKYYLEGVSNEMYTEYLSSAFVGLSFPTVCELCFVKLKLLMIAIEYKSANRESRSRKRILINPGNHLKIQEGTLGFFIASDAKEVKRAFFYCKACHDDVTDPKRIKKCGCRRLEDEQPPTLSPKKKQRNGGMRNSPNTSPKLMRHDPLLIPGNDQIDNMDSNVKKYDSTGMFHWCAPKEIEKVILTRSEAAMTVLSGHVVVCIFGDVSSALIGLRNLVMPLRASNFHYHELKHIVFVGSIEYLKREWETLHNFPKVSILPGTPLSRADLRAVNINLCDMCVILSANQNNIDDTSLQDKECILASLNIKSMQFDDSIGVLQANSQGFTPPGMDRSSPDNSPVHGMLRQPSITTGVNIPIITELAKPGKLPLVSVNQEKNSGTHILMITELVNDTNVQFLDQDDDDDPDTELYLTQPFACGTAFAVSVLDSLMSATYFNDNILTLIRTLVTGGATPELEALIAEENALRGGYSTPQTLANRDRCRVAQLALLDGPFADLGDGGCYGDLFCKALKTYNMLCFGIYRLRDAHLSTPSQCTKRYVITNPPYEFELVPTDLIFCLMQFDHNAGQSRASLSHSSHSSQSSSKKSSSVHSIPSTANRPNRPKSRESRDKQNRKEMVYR

| SMILES | target | test | test system | conditions | endpoint | value |
| --- | --- | --- | --- | --- | --- | --- |
| O=C(N[C@@H]1c2ccccc2C[C@H]1N1CCCC1)c1ccc(-c2ccnc3[nH]ccc23)nc1 | NUAK1 (Homo sapiens, UniProt O60285) | binding, competition with immobilised ligand |  |  | Kd | 1500 nM |
| C[C@@H](Cc1ccsc1)NC(=O)NC[C@H](Cc1ccc(O)cc1)N(C)C | DRD5 | cell-free assay |  |  | Ki | > 50000 nM |
| O=C(O)CCn1c(=O)oc2cc(Cl)c(Cl)cc21 | OPRM1 (Homo sapiens, UniProt P35372) | agonist |  |  | EC50 | > 100000 nM |
| CC[C@@H](C)[C@@H](NC(=O)[C@@H](CCC(N)=O)NC(=O)[C@H](NC(=O)[C@H]1CCCN1C(=O)[C@H](NC(=O)[C@@H](CO)NC(=O)[C@@H](Cc1ccccc1)NC(=O)[C@H]1CCCN1C(=O)[C@@H](CCC(N)=O)NC(=O)[C@H](N)CCSC)[C@H](C)CC)C(C)C)C(=O)N[C@@H](C(=O)N[C@H](CC(C)C)C(=O)N[C@H](CCC(N)=O)C(=O)NCC(=O)N[C@H](CO)C(=O)N[C@H](CCCNC(=N)N)C(=O)N[C@H](CCCNC(=N)N)C(=O)N[C@H](CCCNC(=N)N)C(=O)N[C@H](CCC(N)=O)C(=O)NCC(=O)N[C@H](CCCNC(=N)N)C(N)=O)[C@H](C)O | Kcnma1 (Mus musculus, UniProt Q08460) | BK current, blocker, inside-out patch | Xenopus oocytes | pH 7.0, 22 °C, 0 mV, added: 4 µM peptide | Kd | 10700 nM |
| CSCC[C@H](NC(=O)[C@H](CCC(N)=O)NC(=O)[C@H](CCCCN)NC(=O)[C@H](CCCNC(=N)N)NC(=O)[C@H](Cc1ccc(O)cc1)NC(=O)[C@H](CCCNC(=N)N)NC(=O)[C@H](CO)NC(=O)[C@H](Cc1ccc(O)cc1)NC(=O)[C@H](CO)NC(=O)[C@H](CC(=O)O)NC(=O)[C@@H](NC(=O)[C@@H](N)Cc1ccccc1)[C@@H](C)O)C(=O)N[C@@H](C)C(=O)N[C@H](C(=O)N[C@@H](CCCCN)C(=O)N[C@@H](CCCCn1cc(C[C@H](NC(=O)CNC(=O)[C@H](CO)NC(=O)[C@H](CCCNC(=N)N)NC(=O)[C@H](CO)NC(=O)[C@H](CC(C)C)NC(=O)[C@H](CC(C)C)NC(=O)CNC(=O)[C@H](C)NC(=O)[C@H](CC(C)C)NC(=O)[C@H](CCCNC(=N)N)NC(=O)[C@H](Cc2c[nH]cn2)NC(=O)[C@@H](NC(=O)[C@@H](N)C(C)C)[C@@H](C)O)C(=O)N[C@H](C(=O)N[C@H](C(=O)N[C@@H](CCCCN)C(=O)N[C@@H](CC(N)=O)C(=O)N[C@@H](CC(N)=O)C(=O)N[C@@H](Cc2ccccc2)C(=O)N[C@H](C(=O)N2CCC[C@H]2C(=O)N[C@H](C(=O)N[C@@H](CC(N)=O)C(=O)N[C@H](C(=O)NCC(=O)N[C@@H](CO)C(=O)N[C@@H](CCCCN)C(=O)N[C@@H](C)C(=O)N[C@@H](Cc2ccccc2)C(N)=O)C(C)C)[C@@H](C)O)C(C)C)C(C)C)C(C)C)nn1)C(=O)N[C@@H](Cc1ccc(O)cc1)C(=O)N[C@@H](CC(C)C)C(=O)N[C@@H](C)C(=O)N[C@@H](C)C(=O)N[C@H](C(=O)N[C@@H](CC(C)C)C(=O)NCC(=O)N[C@@H](CCCCN)C(=O)N[C@@H](CCCNC(=N)N)C(=O)N[C@@H](Cc1ccc(O)cc1)C(=O)N[C@@H](CCCCN)C(=O)N[C@@H](CCC(N)=O)C(=O)N[C@@H](CCCNC(=N)N)C(=O)N[C@H](C(=O)N[C@@H](CCCCN)C(=O)N[C@@H](CC(N)=O)C(=O)N[C@@H](CCCCN)C(N)=O)C(C)C)C(C)C)C(C)C | Calcitonin-gene-related peptide receptor, CALCRL/RAMP1 | cAMP accumulation, antagonist, LANCE cAMP | COS-7 cells, transfected | 15 min | Kb | 1 nM |
| Cc1cc(C(c2ccc(Cl)cc2)c2ccc(Cl)cc2)sc1C(=O)N[C@@H](CCCNC(=N)N)C(=O)O | C3AR1 (Homo sapiens, UniProt Q16581) | β-arrestin-1 recruitment, agonist, NanoBiT |  |  | EC50 | 132 nM |
| CN(C)[C@H](CNC(=O)/C=C/c1cccc2ccccc12)Cc1ccc(O)cc1 | NTSR2 (Homo sapiens, UniProt O95665) |  |  |  | Ki | > 50000 nM |
| COc1cc2c(cc1O)C(CCc1ccc(Cl)cc1)N(C)CC2 (centres unmarked) | DRD5 | cell-free assay, radioligand |  |  | Ki | 200 nM |
| CC(C)[C@H](NC(=O)[C@@H]1CSSC(C)(C)[C@H](NC(=O)[C@@H](N)CC(=O)O)C(=O)N[C@@H](Cc2ccccc2)C(=O)N[C@@H](Cc2c[nH]c3ccccc23)C(=O)N[C@@H](CCCCN)C(=O)N[C@@H](Cc2ccc(O)cc2)C(=O)N1)C(=O)O | UTS2R (Homo sapiens, UniProt Q9UKP6, L276A) | IP1 accumulation, agonist, HTRF | HEK293T | 1 h, 37 °C, L276A mutant, 6.53 | EC50 | 0.398 nM |
| CSCC[C@H](NC(=O)[C@H](CCC(N)=O)NC(=O)[C@H](CCCCN)NC(=O)[C@H](CCCNC(=N)N)NC(=O)[C@H](Cc1ccc(O)cc1)NC(=O)[C@H](CCCNC(=N)N)NC(=O)[C@H](CO)NC(=O)[C@H](Cc1ccc(O)cc1)NC(=O)[C@H](CO)NC(=O)[C@H](CC(=O)O)NC(=O)[C@@H](NC(=O)[C@@H](N)Cc1ccccc1)[C@@H](C)O)C(=O)N[C@@H](C)C(=O)N[C@H](C(=O)N[C@@H](CCCCN)C(=O)N[C@@H](CCCCN)C(=O)N[C@@H](Cc1ccc(O)cc1)C(=O)N[C@@H](CC(C)C)C(=O)N[C@@H](C)C(=O)N[C@@H](C)C(=O)N[C@H](C(=O)N[C@@H](CC(C)C)C(=O)NCC(=O)N[C@@H](CCCCN)C(=O)N[C@@H](CCCNC(=N)N)C(=O)N[C@@H](Cc1ccc(O)cc1)C(=O)N[C@@H](CCCCN)C(=O)N[C@@H](CCC(N)=O)C(=O)N[C@@H](CCCNC(=N)N)C(=O)N[C@H](C(=O)N[C@@H](CCCCN)C(=O)N[C@@H](CC(N)=O)C(=O)N[C@@H](CCCCn1cc(C[C@H](NC(=O)CNC(=O)[C@H](CO)NC(=O)[C@H](CCCNC(=N)N)NC(=O)[C@H](CO)NC(=O)[C@H](CC(C)C)NC(=O)[C@H](CC(C)C)NC(=O)CNC(=O)[C@H](C)NC(=O)[C@H](CC(C)C)NC(=O)[C@H](CCCNC(=N)N)NC(=O)[C@H](Cc2c[nH]cn2)NC(=O)[C@@H](NC(=O)[C@@H](N)C(C)C)[C@@H](C)O)C(=O)N[C@H](C(=O)N[C@H](C(=O)N[C@@H](CCCCN)C(=O)N[C@@H](CC(N)=O)C(=O)N[C@@H](CC(N)=O)C(=O)N[C@@H](Cc2ccccc2)C(=O)N[C@H](C(=O)N2CCC[C@H]2C(=O)N[C@H](C(=O)N[C@@H](CC(N)=O)C(=O)N[C@H](C(=O)NCC(=O)N[C@@H](CO)C(=O)N[C@@H](CCCCN)C(=O)N[C@@H](C)C(=O)N[C@@H](Cc2ccccc2)C(N)=O)C(C)C)[C@@H](C)O)C(C)C)C(C)C)C(C)C)nn1)C(N)=O)C(C)C)C(C)C)C(C)C | Calcitonin-gene-related peptide receptor, CALCRL/RAMP1 | cAMP accumulation, antagonist, LANCE cAMP | COS-7 cells, transfected | 15 min | Kb | 1 nM |
| CC(=O)N[C@@H](CO)C(=O)N[C@@H](Cc1ccccc1)C(=O)N[C@@H](CCC(=O)O)C(=O)N[C@@H](Cc1ccccc1)C(=O)N1CCC[C@]12C=C[C@@H]1CC[C@@H](C(=O)N3CCC[C@H]3C(=O)N3CCC[C@H]3C(=O)N[C@H](C(=O)N[C@@H](CCC(=O)O)C(=O)N[C@@H](CC(=O)O)C(=O)N[C@@H](CCC(=O)O)C(=O)N[C@@H](CC(C)C)C(N)=O)[C@@H](C)O)N1C2=O | Protein enabled homolog (ENAH, UniProt Q8N8S7) | binding, fluorescence |  |  | Kd | 12000 nM |
